{"data": "Results from different studies", "note": "Each numbered part is a random draw from the data of one study; scales do not carry over between parts. Changes are numbered by the printed parent chain."}
{"data": "Sample 1", "target": "RING finger protein unkempt homolog, zinc fingers 1-6, SBP tag (UNK, Homo sapiens, UniProt Q9C0B0, residues 30-357)", "technique": "RNA Bind-n-Seq", "molecule type": "RNA", "sample": "in vitro", "tested at": "100 nM", "setting": "RNA with constant flanks, vertebrate orthologous sites, ends assumed", "baseline": "input RNA pool", "reading": "higher = stronger binding", "constant ends, left off below": "GGGAGUUCUACAGUCCGACGAUC … CAACAGAGGAUUGAGCAUCA", "sequence of UniProt Q9C0B0 (30-357, looked up)": "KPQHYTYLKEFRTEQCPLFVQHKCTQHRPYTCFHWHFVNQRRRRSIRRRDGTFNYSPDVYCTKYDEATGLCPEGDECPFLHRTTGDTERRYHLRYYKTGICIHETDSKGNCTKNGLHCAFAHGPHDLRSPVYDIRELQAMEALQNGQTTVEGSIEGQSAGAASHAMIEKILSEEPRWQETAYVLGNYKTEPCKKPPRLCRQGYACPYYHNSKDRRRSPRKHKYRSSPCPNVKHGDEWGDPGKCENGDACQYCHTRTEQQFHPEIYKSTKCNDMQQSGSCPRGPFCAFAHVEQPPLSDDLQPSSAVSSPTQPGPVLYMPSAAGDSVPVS"}
{"Sequence": "UCAUUGUACUGCAAAAAUCAUCCUCGUUCUAAAUUAGCCACAGUGAUAACUUGUCUGCAGUAGUAGAGGCAUUUACCUUUUAAAUUAUCUGCUUUGUCUGAUACCUGAAACACAUCAAAA", "bound/input enrichment": "0.717 ratio"}
{"Sequence": "GGAAGUCCCCAUUGUCACUGAGAACCACCAAAUUUGACUUUCACGUUUGGUCUCAGAAUUUAGGUUCCUGCCCUGUUGUUUUUCUUUCUUUUUCUUAAAACAAACAAACAGUUUUCAGAA", "bound/input enrichment": "0.228 ratio"}
{"Sequence": "UGUAGGUGUUAUGUAUUCAGAUGACAGAAAUACCUAGUCUUCAGAUGAAUUUUUUGCUGAUGUACACGCUGUACCAAACAGUAAUCGUAAUGAUCUGUUGCUAUAGUGACAUGCAAUUAU", "bound/input enrichment": "0.186 ratio"}
{"Sequence": "AUCCCAGUUUGUAUGCACAUUAUUCACAUUCCUAUCUGUUGUGUUUGCAGAAAUGACAUUUUUACCUUUUCUAAGGGUUAAUUUUUGAUUUUCAUAUUAUUUGGUUGCAUGAAGUUGCCC", "bound/input enrichment": "0.282 ratio"}
{"Sequence": "UGUGAGGGUCUACUGACCACUCACUGUUAUGUCUGGUAUCUGUAAACACUCUUUGUUCUUAGUCUUUUCUUGUAUAAUUGAUGUUCUUUAAAAUUGUUAAUGUAUAACAGGGCUUCUGUU", "bound/input enrichment": "1.13 ratio"}
{"Sequence": "CUCUAUGGGCCUCGAAGAGUGGAAGUCAUGGAAGAGGAAAGUGAACAGUAAUCUUCAUUUUAGUAUUUAUGCUUAGGUGUGAAAUAAAUGUUUUUGUCGAUCUCUUCUAUAAUCCAGGGC", "bound/input enrichment": "0.387 ratio"}
{"Sequence": "CCUUUAUAGAGGGUAGUACAUGUUUCAUAAAGGAGAGUCUUUAUAGUUUUGUUUGUCAUAUAGUAUUUUGGAAUUUGUAUAAUGAGGAUGUUUAGAAGCCAUAUAAAUGGCUUUUUUUAA", "bound/input enrichment": "1.3 ratio"}
{"data": "Sample 2", "Molecule": "PhoQ, residues 284 288 289 292 302 303 SNSSNI", "technique": "Sort-seq", "measured": "YFP reporter", "sample": "E. coli", "setting": "PhoQ-PhoP variant library", "added": "10 µM Mg2+", "baseline": "high Mg2+ state", "reading": "higher = stronger signaling"}
{"target": "PhoP, residues 12 14 15 18 19 AYFRS (Escherichia coli, UniProt P23836)", "fold induction": 1.45}
{"target": "PhoP, residues 12 14 15 18 19 SFCSL (Escherichia coli, UniProt P23836)", "fold induction": 19.7}
{"target": "PhoP, residues 12 14 15 18 19 HHYTI (Escherichia coli, UniProt P23836)", "fold induction": 8.64}
{"data": "Sample 3", "target": "Histone acetyltransferase KAT6A, both winged helices, GST fusion (KAT6A, Homo sapiens, UniProt Q92794, residues 1-181)", "technique": "protein binding microarray", "molecule type": "double-stranded DNA, one strand shown", "sample": "in vitro", "tested at": "not given", "setting": "8-mer, flanks averaged, mean of 2 arrays, mostly near background", "baseline": "not given", "reading": "higher = stronger binding", "Construct (chain)": "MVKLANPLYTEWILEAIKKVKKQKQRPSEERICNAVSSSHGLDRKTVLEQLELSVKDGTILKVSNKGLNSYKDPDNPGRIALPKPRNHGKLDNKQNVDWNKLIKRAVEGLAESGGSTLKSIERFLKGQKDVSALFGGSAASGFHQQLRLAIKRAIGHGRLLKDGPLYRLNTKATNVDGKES"}
{"Sequence": "TTGCGCAA", "E-score": 0.245}
{"Sequence": "ATGGGGAG", "E-score": -0.233}
{"Sequence": "AAGCACGG", "E-score": 0.146}
{"Sequence": "GCATTCCC", "E-score": 0.0615}
{"Sequence": "ACGAACCT", "E-score": -0.0661}
{"Sequence": "CCAACCCG", "E-score": 0.201}
{"Sequence": "CCCACAAC", "E-score": -0.0143}
{"Sequence": "CACCAGCC", "E-score": 0.0199}
{"Sequence": "CGATGGCC", "E-score": 0.0977}
{"Sequence": "ATTTCTCG", "E-score": 0.0362}
{"Sequence": "AACTCGGT", "E-score": -0.0686}
{"Sequence": "GAATTTCC", "E-score": 0.0102}
{"Sequence": "CGAACTAA", "E-score": -0.18}
{"Sequence": "CGAAGTCG", "E-score": 0.0206}
{"Sequence": "CATTCACC", "E-score": -0.0189}
{"Sequence": "CACGAATA", "E-score": -0.146}
{"Sequence": "GCATTCAA", "E-score": -0.0598}
{"data": "Sample 4", "target": "CCNB3, cyclin fold, Cln2 fusion (human)", "technique": "yeast growth competition, sequencing", "sample": "yeast", "setting": "strong parent motif", "baseline": "not given", "reading": "higher = stronger binding", "starting sequence": "RBL2 docking peptide (human); STTRRRLFVENDS"}
{"Substitution": "SFTRRRLFVENDS [T2F]", "normalised enrichment score": 0.648}
{"Substitution": "STTRARLFVENDS [R5A]", "normalised enrichment score": -0.192}
{"Substitution": "STERRRLFVENDS [T3E]", "normalised enrichment score": -0.0451}
{"Substitution": "STTRRVLFVENDS [R6V]", "normalised enrichment score": 0.919}
{"Substitution": "STTRRRLFGENDS [V9G]", "normalised enrichment score": 0.759}
{"Substitution": "STTRRILFVENDS [R6I]", "normalised enrichment score": 1.43}
{"Substitution": "STTRRTLFVENDS [R6T]", "normalised enrichment score": 1.83}
{"Substitution": "STTRRRLFVENNS [D12N]", "normalised enrichment score": 0.378}
{"Substitution": "STTRRRYFVENDS [L7Y]", "normalised enrichment score": -0.368}
{"Substitution": "STTRRRLFVEMDS [N11M]", "normalised enrichment score": 0.915}
{"note": "For quick reference, copied from above (sample 1):"}
{"Sequence": "AUCCCAGUUUGUAUGCACAUUAUUCACAUUCCUAUCUGUUGUGUUUGCAGAAAUGACAUUUUUACCUUUUCUAAGGGUUAAUUUUUGAUUUUCAUAUUAUUUGGUUGCAUGAAGUUGCCC", "bound/input enrichment": "0.282 ratio"}
{"Sequence": "CUCUAUGGGCCUCGAAGAGUGGAAGUCAUGGAAGAGGAAAGUGAACAGUAAUCUUCAUUUUAGUAUUUAUGCUUAGGUGUGAAAUAAAUGUUUUUGUCGAUCUCUUCUAUAAUCCAGGGC", "bound/input enrichment": "0.387 ratio"}
